Measured values collected from several papers.
Parts stem from different laboratories: compare values within a part only.

Block 1
Target: RNA binding protein fox-1 homolog 2, RRM domain, GST-SBP tag (RBFOX2, Homo sapiens, UniProt O43251-10, residues 100-194)
Technique: RNA Bind-n-Seq
Molecule type: RNA
Medium: in vitro
Tested at: 365 nM
Notes: natural RNA segment, single round, ends assumed
Reference: no-protein control
Reading: higher = stronger binding
Shared flanks, not repeated: GGGAGUUCUACAGUCCGACGAUC … UGGAAUUCUCGGGUGCCAA
Target sequence (chain): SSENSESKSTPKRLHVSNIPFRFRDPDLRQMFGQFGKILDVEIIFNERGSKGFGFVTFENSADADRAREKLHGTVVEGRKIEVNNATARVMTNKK
Oligonucleotide	RBNS enrichment (R)
UUGGCAAUACCCUGUGGAUCUGAAACAGCUAAAAAAAUGAAUUUGAAUUGCGCCAGAUAGGUCAAUACCAAGCUUCUGAUUCCUCCUCACAUAUGAAAAGUGAAAGUUGU	0.504
CAUCAUAUUGAUGAGCGAACAAACAAGAACAUUUCCUCCCUCCCCUCCUUUGAAUUGAAAUGGCACAUUAAGACUUGUCACGGCUUCUCACUGGGACUGGAGACCUCGUU	0.414
UUAAGAUUCAUUCCUCAUUCUGUUUCUUUCCAGUGGGAGAAGAGUCCCCAUGAAAUAAGAUGAAACUGAUUCCAUGCACUAGUACAUGUAGGCUUCUCCCUUGUGCAAAG	0.638
GAACUGUUGGAUGACACCUUUGACAUAUCAGCCAAUAUCAAUCAAGCUGAAGACUCCAGACACUGUCUGUGUGACUGUAACAUUUCUUCAAGGAAAGUAUAGCGUCUAUG	0.21
UGCUGGAAUUGAAACAAUACUUUAAUACCGUUUAAGUUUGUUUCCUUUUUUUUUUUCCUCUUUUUUUUUUCUUUCACCAAGAAAAGAAAAAAGUAAACUAAAAUACAAAA	0.454
GGGCCUCCCCACCUGCUUUGGGGAGCUGUCUGUGCUGGGAGUGCCAGGCAUCCCAUGGGACCCAUCACUGCCAGUGUCUGUGCCUCCCAGAGGUCAGCCGUGUCUGCCCU	0.266
UUUUUAAUGCUGUUCCUCAUGUACAUGACUUAAAAAUGUCACCAAGGCAUCAAAAUGAGUUGACAGCCAGGCCUGGUGGUACAGGCCAGUAAAGCCAGCUGCUCUGGAGG	0.314
CAAAGGACCAGCUCCACACUGCCCCCUGCAGUUGAAUAGUGGACAGUAGCUGGUGUGACUGAACAGCAAUGGGGUGGUUGGUACUCAAUGCCUAGGUGAGCCAGUGGUUC	0.329
CCGAGUGCUCGAAUGGUGUAUUUACAAUGUGAUUCUAGUCUCUUCUUCAGGGAACAUGCCUGCAUUACAUGAAAUUCCAUGCGCCCAGCUGGUUAUUUCUUGUCUUCCAU	0.344
CUGCAUGUGUGCACACACACACAUCUUAGAUACACAAAAAGAAAUGUUCAGAUUCCUUUGAGAAUUUCAAAUGAAAAAUAAUCUUUCUGUAUGUGGUGUCUAACAUCUAC	0.388
CGGUCUUAUCUCCCUCGUGUGUUGAACUUGCUGUCCGUCCAUGCACCCUACGAAGGCCAUGCUGUGCAAACGUGCUCAGGAUCUCAGUAACGGGCCAACCCCCAACUACA	0.912
CAUUGAUGCGGACAGGUAAGAACAACCCAUGUACCCCCGAGUGAUUGCAUGCUUUAUUCUACCUCUAAGCCAUCGUGUUGACGUGGGUAUGGACGCCUGGGUCUGACCUG	3.25

Block 2
Target: PABPC1L2, full length, GST fusion (mouse, UniProt A0ABA7IW68)
Technique: RNAcompete
Molecule type: RNA
Medium: in vitro
Tested at: 20 nM
Notes: 7-mer, probes averaged, single round
Reference: mean of 7-mers
Reading: higher = stronger binding
Target sequence (chain): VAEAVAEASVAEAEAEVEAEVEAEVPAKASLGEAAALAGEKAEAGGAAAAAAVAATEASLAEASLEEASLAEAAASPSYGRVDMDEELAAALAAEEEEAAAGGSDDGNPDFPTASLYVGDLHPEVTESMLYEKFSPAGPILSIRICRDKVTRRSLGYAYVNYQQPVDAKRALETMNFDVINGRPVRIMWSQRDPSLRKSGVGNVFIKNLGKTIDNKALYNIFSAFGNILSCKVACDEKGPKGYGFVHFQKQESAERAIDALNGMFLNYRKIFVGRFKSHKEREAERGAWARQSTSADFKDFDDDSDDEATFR
Oligonucleotide	7-mer Z-score
AUGCACG	0.0968
CGCUCUC	-0.325
GCUAAUG	-0.267
AACUAGU	-0.115
UUCACUU	-0.32
AUGUGUC	-0.364
AGCCAAC	-0.249
GGUUCUA	-0.164
CGUCUCU	-0.443
CUCGAAU	-0.128
AUCACCU	-0.206
UCCCCAG	-0.316
CCCGCCA	-0.431
UAUGUUG	-0.159
CUAGCCA	-0.206
GCUUUUA	-0.0156
AUGGGGC	0.372

Block 3
Target: human cyclin A2
Technique: competitive growth deep sequencing
Molecule type: peptide
Organism: Saccharomyces cerevisiae
Strain: cyclin A2-Cln2 fusion strain
Notes: peptide tiling library
Reading: direction not given
Molecule	enrichment score
KRCATPVIIDEILPSK	0.192
HPESPPRKRLKSKGSD	5.45
GTPKRCLDLSNLSSGE	0.148
ESSQLTVQAEFDMSAI	0.486
EHCRVLFLDHVMYTIH	-0.701
GPVKLEFDVSDGAT	0.705
PHKTFRKLRLFDTPHT	-0.605
VLPGGVPSPGASLTSM	0.0161
ATNSSHTDAHEILVSD	0.805
SNFFDVIKQLFSDEKN	-0.0489
NESHLDKEHDAVEVAD	0.311
RTEALEQGGLPKKLIF	1.54
EPRNLLSLFEDTLDPT	1.25
AKRSLGFLPQPVPL	0.316

Block 4
Target: Histone acetyltransferase KAT6A, winged helix 1, GST fusion (KAT6A, Homo sapiens, UniProt Q92794, residues 1-85)
Technique: protein binding microarray
Molecule type: double-stranded DNA, one strand shown
Medium: in vitro
Tested at: not given
Notes: 8-mer, flanks averaged, mean of 2 arrays, mostly near background
Reference: not given
Reading: higher = stronger binding
Residues (chain): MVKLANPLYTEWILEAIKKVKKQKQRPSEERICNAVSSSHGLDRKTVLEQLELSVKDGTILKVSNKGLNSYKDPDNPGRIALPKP
Oligonucleotide	E-score
CTGTATGA	-0.0105
TCGATGCA	-0.21
ACCTCGCG	0.258
ACACAGAC	-0.216
CCTATAAG	-0.114
CAGCTAGC	0.0152
CAGGGAGA	-0.187
ACAACTGC	-0.0105
GAACGTCA	-0.0664
CATGCGTC	0.142
GGAATTTA	-0.0212
CGGGAGCC	0.276
GGCAGTAA	0.0793
GTATCGTA	-0.00769
CCCGCCTA	0.287
CCGTCTCA	0.217
GCGAGTCA	0.0585
AACCGTTC	0.0965
ACAGAGTA	-0.1
ACCAGTCC	-0.104
AACCAGCT	-0.254
AGAGCGCT	0.251
CAGGGAGC	-0.0739
CCTCACAC	-0.153
CCCCCCAG	-0.15

Block 5
Target: Interferon regulatory factor 3, full length, phosphomimetic (IRF3, Homo sapiens, UniProt Q14653, residues 1-427, S386D/S396D/S398D/S402D/T404D/S405D)
Sequence of UniProt Q14653 (whole entry, unmodified, looked up): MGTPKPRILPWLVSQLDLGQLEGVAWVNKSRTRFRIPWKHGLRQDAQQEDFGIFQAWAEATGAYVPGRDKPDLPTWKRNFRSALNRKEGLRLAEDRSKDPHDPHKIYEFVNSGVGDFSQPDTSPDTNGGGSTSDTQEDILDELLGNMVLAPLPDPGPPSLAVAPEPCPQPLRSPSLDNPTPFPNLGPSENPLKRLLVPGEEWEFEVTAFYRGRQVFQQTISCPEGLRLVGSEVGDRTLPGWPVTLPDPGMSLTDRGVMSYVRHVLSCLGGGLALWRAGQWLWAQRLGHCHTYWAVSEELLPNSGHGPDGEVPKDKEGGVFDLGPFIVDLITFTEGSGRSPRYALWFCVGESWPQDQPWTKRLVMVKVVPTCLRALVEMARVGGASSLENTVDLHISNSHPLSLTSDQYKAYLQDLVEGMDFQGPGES
Technique: protein-binding microarray
Molecule type: double-stranded DNA, one strand shown
Medium: in vitro
Tested at: 2540 nM top
Notes: 60-bp whole probe
Added: salmon DNA 0.4 mg/ml
Reference: random background probes
Reading: higher = stronger binding
Shared flanks, not repeated: GCCTAGCAC … GTCTTGATTCGCTTGACGCTGCTG
Oligonucleotide	fitted relative affinity [z-score]
TTAGGTTCCGGTTTCGTTTAGTGCTAG	6.77
TTAGGACTGGACTATGGGTTAGTGCTA	-0.599
TTAGTTCTCAGACTGGATTAGTGCTAG	0.82
TTAGCACTGCTTATCCTTTAGTGCTAG	-0.106
TTAGTTCTCGGTCTCGGTTAGTGCTAG	1.59
TTAGATTTCGGGTATCGATGAGTGCTA	1.24
CTACTTCTCTTTTTGCTTTCGTGCTAG	3.13
TTAGGACTGCTTCTCATTTAGTGCTAG	0.0774
TTAGGACTGGGTCTCGGTTAGTGCTAG	-0.611
GACGGTTTCGGATTCGGGACGTGCTAG	8.01
AACGGTATCGACACTGGGGACGTGCTA	0.627
AAGTTTTTCATTTTTTTTCAGTGCTAG	1.45
TTAGGACTGCTTTTCCTTGAGTGCTAG	-0.103
GTCGATTTCAGTTTCGAGACGTGCTAG	5.64
GTCGGACTGGACTATCGGGACGTGCTA	-0.279

Block 6
Target: Protein C-ets-1 (ETS1, Homo sapiens, UniProt P14921, residues 1-441, Y397A, full length assumed)
Sequence of UniProt P14921 (whole entry, unmodified, looked up): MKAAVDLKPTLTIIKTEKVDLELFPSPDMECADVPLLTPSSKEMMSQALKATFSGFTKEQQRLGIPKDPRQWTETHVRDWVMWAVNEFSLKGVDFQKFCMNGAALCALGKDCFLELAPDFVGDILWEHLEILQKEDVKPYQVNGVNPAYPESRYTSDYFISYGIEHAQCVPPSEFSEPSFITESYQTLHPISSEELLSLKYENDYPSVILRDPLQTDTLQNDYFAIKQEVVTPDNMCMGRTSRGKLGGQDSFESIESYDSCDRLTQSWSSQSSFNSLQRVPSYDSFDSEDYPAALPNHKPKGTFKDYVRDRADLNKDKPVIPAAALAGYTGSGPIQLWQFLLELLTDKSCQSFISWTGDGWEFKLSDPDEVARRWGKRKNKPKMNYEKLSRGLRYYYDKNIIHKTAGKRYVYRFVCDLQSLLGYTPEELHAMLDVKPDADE
Technique: protein-binding microarray
Molecule type: double-stranded DNA, one strand shown
Medium: in vitro
Tested at: not given
Notes: k-mer, scored over probes, only values ≥0.25
Reading: higher = stronger binding
Oligonucleotide	E-score
ATCGTACA	0.263
ACAACATA	0.284
GCAAACAC	0.252
ACGTCGCC	0.265
ATGGCAAC	0.274
AGTGACAA	0.341
ACTTCCTA	0.31
ACAGACAA	0.256
TCCGACAA	0.426
GGTAACAA	0.27
GTGCGCAC	0.362
GACAACAA	0.357
ATGACAAC	0.309

Excerpt of the above (block 2):
Oligonucleotide	7-mer Z-score
AUGCACG	0.0968
CGCUCUC	-0.325
GCUAAUG	-0.267
AACUAGU	-0.115
UUCACUU	-0.32
AUGUGUC	-0.364
AGCCAAC	-0.249
GGUUCUA	-0.164
CGUCUCU	-0.443
CUCGAAU	-0.128
AUCACCU	-0.206
UCCCCAG	-0.316
CCCGCCA	-0.431
UAUGUUG	-0.159
CUAGCCA	-0.206
